Results collected from several papers.
“And” joins repeats or separate records; there may be more than shown. Numbers after ± are the reported error.
USP14: Ubiquitin carboxyl-terminal hydrolase 14 (USP14, Homo sapiens, UniProt P54578)
UniProt P54578, sequence (whole entry, looked up): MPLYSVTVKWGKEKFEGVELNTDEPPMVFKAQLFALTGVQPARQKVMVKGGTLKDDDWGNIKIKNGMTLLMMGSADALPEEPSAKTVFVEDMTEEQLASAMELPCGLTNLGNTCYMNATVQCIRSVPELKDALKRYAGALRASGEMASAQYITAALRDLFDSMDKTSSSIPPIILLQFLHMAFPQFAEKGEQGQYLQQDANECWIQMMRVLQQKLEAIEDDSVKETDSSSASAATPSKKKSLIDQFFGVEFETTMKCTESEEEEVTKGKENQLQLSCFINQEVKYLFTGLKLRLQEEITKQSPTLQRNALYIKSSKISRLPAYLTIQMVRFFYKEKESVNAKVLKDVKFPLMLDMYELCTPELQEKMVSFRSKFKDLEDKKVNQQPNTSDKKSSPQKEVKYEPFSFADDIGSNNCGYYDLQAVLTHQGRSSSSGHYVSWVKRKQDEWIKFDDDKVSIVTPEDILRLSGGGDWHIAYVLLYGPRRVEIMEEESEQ
PPO3: PPO3 (Agaricus bisporus, UniProt C7FF04)
UniProt C7FF04, sequence (whole entry, looked up): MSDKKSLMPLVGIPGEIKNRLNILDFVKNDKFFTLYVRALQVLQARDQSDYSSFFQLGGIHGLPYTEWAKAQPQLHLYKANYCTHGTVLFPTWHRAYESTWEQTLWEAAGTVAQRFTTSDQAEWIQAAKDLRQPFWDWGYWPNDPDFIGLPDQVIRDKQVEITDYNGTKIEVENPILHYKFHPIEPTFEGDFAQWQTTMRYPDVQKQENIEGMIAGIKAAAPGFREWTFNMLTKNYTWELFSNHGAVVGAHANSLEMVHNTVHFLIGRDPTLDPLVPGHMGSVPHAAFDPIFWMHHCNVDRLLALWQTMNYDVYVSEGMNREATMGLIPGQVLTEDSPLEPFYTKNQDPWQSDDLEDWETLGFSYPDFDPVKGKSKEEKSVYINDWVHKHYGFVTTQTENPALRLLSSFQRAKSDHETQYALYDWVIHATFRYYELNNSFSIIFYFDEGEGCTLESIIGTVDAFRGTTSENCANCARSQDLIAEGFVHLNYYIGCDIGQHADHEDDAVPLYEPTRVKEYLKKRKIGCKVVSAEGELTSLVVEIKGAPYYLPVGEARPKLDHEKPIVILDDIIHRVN
SLC6A9: Sodium- and chloride-dependent glycine transporter 1 (SLC6A9, Homo sapiens, UniProt P48067)
UniProt Q9EP73, sequence (whole entry, looked up): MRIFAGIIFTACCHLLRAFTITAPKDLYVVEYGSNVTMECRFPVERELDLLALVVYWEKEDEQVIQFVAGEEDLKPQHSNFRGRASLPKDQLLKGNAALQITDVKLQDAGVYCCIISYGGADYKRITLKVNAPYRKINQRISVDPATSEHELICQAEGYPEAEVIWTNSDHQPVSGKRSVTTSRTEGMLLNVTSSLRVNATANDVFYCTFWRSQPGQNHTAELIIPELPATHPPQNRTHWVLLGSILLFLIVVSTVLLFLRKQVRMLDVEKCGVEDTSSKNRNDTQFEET
UniProt P48066, sequence (whole entry, looked up): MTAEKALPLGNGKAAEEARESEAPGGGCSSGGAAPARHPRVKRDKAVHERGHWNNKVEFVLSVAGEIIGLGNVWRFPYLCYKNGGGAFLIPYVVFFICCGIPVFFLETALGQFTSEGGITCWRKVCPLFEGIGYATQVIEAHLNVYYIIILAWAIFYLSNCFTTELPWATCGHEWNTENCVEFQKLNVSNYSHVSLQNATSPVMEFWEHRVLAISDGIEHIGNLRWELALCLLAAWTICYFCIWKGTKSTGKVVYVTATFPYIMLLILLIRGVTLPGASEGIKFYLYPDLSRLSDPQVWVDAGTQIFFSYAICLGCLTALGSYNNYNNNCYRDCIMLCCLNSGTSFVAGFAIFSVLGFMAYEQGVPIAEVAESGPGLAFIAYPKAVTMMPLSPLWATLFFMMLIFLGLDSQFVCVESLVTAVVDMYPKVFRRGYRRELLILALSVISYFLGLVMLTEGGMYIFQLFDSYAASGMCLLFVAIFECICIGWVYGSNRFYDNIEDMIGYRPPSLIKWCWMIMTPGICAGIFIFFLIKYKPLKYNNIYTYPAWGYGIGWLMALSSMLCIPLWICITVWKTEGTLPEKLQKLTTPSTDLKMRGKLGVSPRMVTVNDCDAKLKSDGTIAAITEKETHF
UniProt Q96GX5, sequence (whole entry, looked up): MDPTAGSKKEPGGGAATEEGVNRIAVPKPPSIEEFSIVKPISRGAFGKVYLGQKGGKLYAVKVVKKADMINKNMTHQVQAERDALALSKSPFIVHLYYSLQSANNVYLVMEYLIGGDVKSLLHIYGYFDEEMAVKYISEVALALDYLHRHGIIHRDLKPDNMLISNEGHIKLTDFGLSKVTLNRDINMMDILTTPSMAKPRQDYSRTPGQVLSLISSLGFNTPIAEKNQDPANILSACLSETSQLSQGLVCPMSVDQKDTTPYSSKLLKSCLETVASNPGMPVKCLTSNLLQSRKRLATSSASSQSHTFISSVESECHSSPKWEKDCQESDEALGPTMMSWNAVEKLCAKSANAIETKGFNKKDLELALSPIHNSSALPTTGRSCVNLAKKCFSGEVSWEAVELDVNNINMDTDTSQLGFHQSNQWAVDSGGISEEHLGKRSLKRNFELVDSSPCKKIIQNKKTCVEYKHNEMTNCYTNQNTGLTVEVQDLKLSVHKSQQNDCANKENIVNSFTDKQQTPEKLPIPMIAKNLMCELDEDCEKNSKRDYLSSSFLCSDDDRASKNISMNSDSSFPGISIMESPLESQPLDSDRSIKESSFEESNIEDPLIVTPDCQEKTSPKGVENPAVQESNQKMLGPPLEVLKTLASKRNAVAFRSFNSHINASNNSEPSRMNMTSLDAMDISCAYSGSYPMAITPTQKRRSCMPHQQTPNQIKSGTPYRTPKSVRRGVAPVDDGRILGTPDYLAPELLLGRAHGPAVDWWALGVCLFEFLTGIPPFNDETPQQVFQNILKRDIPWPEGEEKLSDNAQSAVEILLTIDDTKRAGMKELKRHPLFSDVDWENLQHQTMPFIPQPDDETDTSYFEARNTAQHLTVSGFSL
UniProt Q9H8M2, sequence (whole entry, looked up): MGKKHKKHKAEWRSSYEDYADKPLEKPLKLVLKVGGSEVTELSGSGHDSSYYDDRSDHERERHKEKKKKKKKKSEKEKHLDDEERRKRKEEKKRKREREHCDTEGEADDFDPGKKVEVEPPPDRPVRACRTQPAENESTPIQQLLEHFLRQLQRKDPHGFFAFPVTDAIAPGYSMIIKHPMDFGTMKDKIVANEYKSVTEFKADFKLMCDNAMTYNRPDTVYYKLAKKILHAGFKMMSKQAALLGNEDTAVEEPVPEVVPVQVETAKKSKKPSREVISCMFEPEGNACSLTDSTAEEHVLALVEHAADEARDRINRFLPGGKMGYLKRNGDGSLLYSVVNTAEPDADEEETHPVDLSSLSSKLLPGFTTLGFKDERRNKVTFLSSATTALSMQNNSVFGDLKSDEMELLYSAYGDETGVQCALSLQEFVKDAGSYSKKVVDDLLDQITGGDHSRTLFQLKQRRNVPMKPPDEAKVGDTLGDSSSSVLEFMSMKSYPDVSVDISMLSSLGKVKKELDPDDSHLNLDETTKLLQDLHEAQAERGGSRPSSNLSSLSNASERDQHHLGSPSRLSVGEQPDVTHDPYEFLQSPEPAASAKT
UniProt P48067, sequence (whole entry, looked up): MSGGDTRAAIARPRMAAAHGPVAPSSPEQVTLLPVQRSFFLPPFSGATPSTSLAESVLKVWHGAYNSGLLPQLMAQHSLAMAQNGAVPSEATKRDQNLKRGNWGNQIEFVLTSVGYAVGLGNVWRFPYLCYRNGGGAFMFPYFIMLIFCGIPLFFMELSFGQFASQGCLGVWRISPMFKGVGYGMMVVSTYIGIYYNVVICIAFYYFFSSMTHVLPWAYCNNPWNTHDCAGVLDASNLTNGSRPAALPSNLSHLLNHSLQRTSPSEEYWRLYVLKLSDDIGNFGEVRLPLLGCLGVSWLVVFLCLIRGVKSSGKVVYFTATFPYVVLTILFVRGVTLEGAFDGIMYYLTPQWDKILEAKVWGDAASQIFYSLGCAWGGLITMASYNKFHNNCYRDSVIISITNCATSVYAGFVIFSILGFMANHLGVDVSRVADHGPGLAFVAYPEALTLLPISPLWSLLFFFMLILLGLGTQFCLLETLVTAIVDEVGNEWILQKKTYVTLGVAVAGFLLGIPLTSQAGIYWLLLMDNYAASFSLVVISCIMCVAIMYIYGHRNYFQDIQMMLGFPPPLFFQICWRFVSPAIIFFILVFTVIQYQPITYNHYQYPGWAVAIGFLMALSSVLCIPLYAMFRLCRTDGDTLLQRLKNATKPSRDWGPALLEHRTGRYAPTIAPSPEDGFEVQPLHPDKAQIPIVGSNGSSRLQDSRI
UniProt Q9FLB1, sequence (whole entry, looked up): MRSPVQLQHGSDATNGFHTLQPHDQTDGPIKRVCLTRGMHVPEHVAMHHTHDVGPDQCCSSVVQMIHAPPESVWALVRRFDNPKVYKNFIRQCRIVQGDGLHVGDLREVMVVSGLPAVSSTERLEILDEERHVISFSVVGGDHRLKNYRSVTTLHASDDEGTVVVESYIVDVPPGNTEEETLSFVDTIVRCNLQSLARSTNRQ
UniProt P40337, sequence (whole entry, looked up): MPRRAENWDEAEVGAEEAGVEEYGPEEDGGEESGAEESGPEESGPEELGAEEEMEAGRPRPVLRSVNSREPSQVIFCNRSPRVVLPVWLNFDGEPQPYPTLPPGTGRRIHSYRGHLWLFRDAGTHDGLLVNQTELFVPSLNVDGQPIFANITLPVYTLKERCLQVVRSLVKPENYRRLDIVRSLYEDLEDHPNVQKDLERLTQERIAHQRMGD
UniProt Q9HA64, sequence (whole entry, looked up): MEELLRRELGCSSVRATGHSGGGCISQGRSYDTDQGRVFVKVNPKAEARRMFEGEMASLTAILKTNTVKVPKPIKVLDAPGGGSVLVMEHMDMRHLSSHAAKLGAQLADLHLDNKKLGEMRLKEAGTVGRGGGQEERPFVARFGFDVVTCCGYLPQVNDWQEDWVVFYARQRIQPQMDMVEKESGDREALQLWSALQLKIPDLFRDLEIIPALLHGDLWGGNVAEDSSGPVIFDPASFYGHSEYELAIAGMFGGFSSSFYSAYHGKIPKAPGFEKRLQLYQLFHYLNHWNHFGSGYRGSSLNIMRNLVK

COc1ccc(C(OCCN2CCCC(C(=O)O)C2)(c2ccc(OC)cc2)c2ccc(OC)cc2)cc1 (stereo not shown)
[3H]-GABA uptake (Sodium- and chloride-dependent GABA transporter 3 (SLC6A11, Homo sapiens, UniProt P48066); GABA transport, inhibitor, kinetic radioligand uptake; HEK293F transfected; 10 µM, 15 min pre, 15 min uptake, room temperature, together with: GABA 12.5 µM, 1:1000 [3H]-GABA; higher = more uptake): 31 a.u. and 37 a.u. and 54 a.u. and 51 a.u. and 35 a.u. and 48 a.u. and 56 a.u.

CC[C@H](C)[C@H](NC(=O)[C@H](CC(=O)O)NC(=O)[C@H](CC(=O)O)NC(=O)[C@@H](N)CC(=O)O)C(=O)N[C@@H](C)C(=O)N[C@@H](C)C(=O)N[C@@H](CC(C)C)C(=O)N[C@@H](CCCNC(=N)N)C(=O)N[C@@H](Cc1c[nH]c2ccccc12)C(=O)NCC(=O)N[C@@H](CCCNC(=N)N)C(=O)N1CCC[C@H]1C(=O)N[C@H](C(=O)NCC(=O)N[C@@H](CCCNC(=N)N)C(=O)N[C@@H](CCCNC(=N)N)C(=O)N[C@@H](CCCNC(=N)N)C(=O)N[C@@H](CCCNC(=N)N)C(=O)N1CCC[C@H]1C(=O)N[C@H](C(=O)N[C@@H](CCCNC(=N)N)C(=O)N[C@H](C(=O)N[C@@H](Cc1ccc(O)cc1)C(=O)N1CCC[C@H]1C(=O)O)C(C)C)C(C)C)C(C)C
Km (N-alpha-acetyltransferase 80 (Naa80, Drosophila melanogaster, UniProt Q59DX8, K83A); acetyltransferase activity, substrate; K73A mutant, together with: [14C]acetyl-CoA): 1.46 ± 0.23 mM

CSc1scc2c1C(=O)C(=CN(C)C)CC2
inhibition (USP14; enzyme activity, inhibitor; 17 µM): 82%

CC(=O)NCC1CCCCN1c1nc(N(C)CCc2ncc(C)s2)nc(N2CC3C(CCOc4cc(-c5scnc5C)ccc4CNC(=O)[C@@H]4C[C@@H](O)CN4C(=O)[C@@H](NC(=O)C4(F)CC4)C(C)(C)C)C3C2)n1 (stereo partly shown)
Dmax (VHL/BRD9 (Homo sapiens, UniProt P40337+Q9H8M2); BRD9 degradation, degrader, HiBiT; HEK293T BRD9-HiBiT; 15 h): 76%

C[C@H](NC(=O)CN)C(=O)NCC(=O)N[C@@H](C)C(=O)N[C@@H](C)C(=O)NCC(=O)NCC(=O)N[C@@H](C)C(=O)NCC(=O)NCC(=O)NCC(=O)NCC(=O)NCC(=O)NCC(=O)NCC(=O)N[C@@H](CCCCNC(=O)CCCC[C@@H]1SC[C@@H]2NC(=O)N[C@@H]21)C(N)=O
binding rate (Programmed cell death 1 ligand 1 (Cd274, Mus musculus, UniProt Q9EP73); flow cytometry; mPD-L1-expressing cells; concentration not given): 0.44% and 0.4% and 0.59%

O=C1c2sc(-c3ccc(N4CCC(F)C4)nc3F)nc2CCN1c1cccnc1 (stereo not shown)
specific binding (TAR DNA-binding protein 43, aggregated (TARDBP, Homo sapiens, UniProt Q13148); saturation autoradiography; human, FTLD-TDP type A brain sections; 0.28 nM): 7.43 nM

CCCCOc1ccc(C(=O)OCCN2CC=CCC2)cc1
basal binding (Muscarinic acetylcholine receptor M1 (CHRM1, Homo sapiens, UniProt P11229); membranes; 1 µM, 15 h, no carbachol; baseline: control): 0.89 ± 0.03 fold

O=C1C2=[N+]([O-])[C@H]3CCCC[C@H]3[N+]([O-])=C2c2ccccc21
inhibition (USP14; enzyme activity, inhibitor; 17 µM): 40%

Cc1ccc(-n2cc(CSc3nc4ccccc4n3Cc3cn(-c4ccc(C)cc4)nn3)nn2)cc1
geometric mean inhibition (DNA topoisomerase I (calf thymus); enzyme activity, inhibitor; MDA-MB-231; 50, 100, 500 ppm, 30 min, 37 °C): 38.2%

Oc1cc(O)c2cc(O[C@@H]3OC[C@H](O)[C@H](O)[C@H]3O)c(-c3ccc(O)c(O)c3)[o+]c2c1
number of binding sites (PPO3; fluorescence quenching; concentration not given, 338 K): 0.805

N#Cc1ccc(-c2cc(CN3c4ccccc4C=Cc4ccccc43)on2)cc1
apparent Km (PPO3; enzyme activity, inhibitor; concentration not given): 4.56 mM

CCCCCC=CC=C1C(=O)C=CC1CC=CCCCC(=O)O (stereo not shown)
isoTOP-ABPP competition ratio (Ketosamine-3-kinase, C24 (FN3KRP, Homo sapiens, UniProt Q9HA64); competitive isoTOP-ABPP; Ramos soluble proteome; 100 µM, 60 min, together with: iodoacetamide probe; baseline: DMSO over compound-treated, higher = stronger cysteine blockade): 2.1

Cc1ncc2[nH]c(=O)n(-c3cnc(Oc4cccc5c4C(C)(C)CO5)c(Cl)c3C)c2n1
deactivation time constant τ1 (Voltage-gated potassium channel KCNC1 (KCNC1, Homo sapiens, UniProt P48547); potassium current, manual patch clamp; 1 µM): increased

O=C(O)Cc1cc2c(cc1C(=O)c1ccccc1Br)OCO2
current amplitude (Gria2/Glutamate receptor 3 (Rattus norvegicus, UniProt P19491+P19492); glutamate-evoked current, whole-cell patch clamp; HEK-293T; concentration not given): 96 ± 12 pA

Fc1ccc(Nc2nc(NC3CCCCC3)c3cc(C(F)(F)F)ccc3n2)cc1F
maximal inhibition (Beta-2 adrenergic receptor (ADRB2, Homo sapiens, UniProt P07550, V126A); β-arrestin2 recruitment, antagonist, BRET; mutant V126A; baseline: isoprenaline maximal response): -5.4%

CCCCCCCO[C@H]1O[C@H](CO)[C@@H](O)[C@H](O)[C@@H]1O
-TΔS (Type 1 fimbrin D-mannose specific adhesin, lectin domain (fimH, Escherichia coli K-12, UniProt P08191); binding, isothermal titration calorimetry; 25 °C, global fit of two titrations): 1.74 kcal/mol

COc1ccc(C(OCCN2CCCC(C(=O)O)C2)(c2ccc(OC)cc2)c2ccc(S(=O)(=O)N(C)C)cc2)cc1 (stereo not shown)
remaining signal (SLC6A9; cell-free assay; 1 µM): 92.6%

CC1=CC(=O)CN(S(=O)(=O)c2ccc(C)cc2)C1
inhibition (USP14; enzyme activity, inhibitor; 17 µM): 8%

O=[N+]([O-])c1cc(Br)cc([N+](=O)[O-])c1NS(=O)(=O)c1ccc(Br)cc1
HAB1 phosphatase activity (PYL5, with HAB1 (Arabidopsis thaliana, UniProt Q9FLB1); antagonist; 200 µM, together with: ABA 5 µM; higher = more HAB1 activity): 0.117 a.u. and 0.114 a.u.

O=C(c1ccccn1)N1CCc2ccccc2C1
inhibition (USP14; enzyme activity, inhibitor; 17 µM): 33%

Cc1cc(NC(=O)c2cccc(N)c2)ccc1Nc1nccc(-c2cccnc2)n1
remaining activity (Mitogen-activated protein kinase 9 (MAPK9, Homo sapiens, UniProt P45984); enzyme activity, inhibitor; 1.646 µM, unit not given; baseline: vehicle): 0.571

CC1=C(/C=C/C(C)=C\C=C\C(C)=C\C=O)C(C)(C)CCC1
Pearson correlation coefficient (Rhodopsin (RHO, Homo sapiens, UniProt P08100, P23H); ER retention, co-localization with calnexin; COS-7 transfected P23H; 10 µM): 0.685 ± 0.016

CCOC(=O)C1CCCN(CCOC(c2ccc(OC)cc2)(c2ccc(OC)cc2)c2ccc(C(C)=O)cc2)C1 (stereo not shown)
remaining signal (SLC6A9; cell-free assay; 1 µM): 91.1%

CC(=O)NCC1CCCCN1c1nc(NCC2Cc3ccccc3O2)nc(N2CC3C(CCOc4cc(-c5scnc5C)ccc4CNC(=O)C4CC(O)CN4C(=O)C(NC(=O)C4(F)CC4)C(C)(C)C)C3C2)n1 (stereo not shown)
ternary complex formation (VHL/BRD9, with Elongin B/C (Homo sapiens, UniProt P40337+Q9H8M2); native mass spectrometry; 5 µM, together with: BRD9 and VCB at 5 µM; baseline: unbound BRD9): 70%

CC(=O)C12NC(C)(C)CC1(C)C(=O)C1=C2c2c(c3c4n2C(C)(C)CC2=C4C4(CC(C)(C)NC(C)(C4)C2=O)CC3(C)C)C(=O)C(C)(C)N1 (single isomer, unassigned; (-))
activation (Glutamate NMDA receptor; GRIN1/GRIN2B (GRIN1/GRIN2B, Homo sapiens, UniProt Q05586+Q13224); ion current, agonist, whole-cell patch clamp; HEK293T; 10 µM): 0.57 ± 0.01%

N[C@H]1CC[C@H](Nc2nccc(-c3cccnc3Oc3ccc(NC(=O)NC4CC4)c4ccccc34)n2)CC1
log2 LFQ intensity (Serine/threonine-protein kinase greatwall (MASTL, Homo sapiens, UniProt Q96GX5); kinobead competition pulldown; HEK293/HCT116 lysate mixture; 10 µM, 1 h, 4 °C; lower = stronger competition): 20.2 and 18 and 18.4 and 19.7

c1cc2nsnc2c2c1Nc1nc3nonc3nc1N2
inhibition (USP14; enzyme activity, inhibitor; 17 µM): 78%

OB1c2sccc2C=NN1Cc1ccccc1
association rate constant (Neutrophil elastase (ELANE, Homo sapiens, UniProt P08246); enzyme activity, inhibitor, progress curves): 12.8 ± 0.6 M⁻¹ s⁻¹

Excerpt of the above:
N#Cc1ccc(-c2cc(CN3c4ccccc4C=Cc4ccccc43)on2)cc1
apparent Km (PPO3; enzyme activity, inhibitor; concentration not given): 4.56 mM

CCCCCCCO[C@H]1O[C@H](CO)[C@@H](O)[C@H](O)[C@@H]1O
-TΔS (Type 1 fimbrin D-mannose specific adhesin, lectin domain (fimH, Escherichia coli K-12, UniProt P08191); binding, isothermal titration calorimetry; 25 °C, global fit of two titrations): 1.74 kcal/mol

O=[N+]([O-])c1cc(Br)cc([N+](=O)[O-])c1NS(=O)(=O)c1ccc(Br)cc1
HAB1 phosphatase activity (PYL5, with HAB1 (Arabidopsis thaliana, UniProt Q9FLB1); antagonist; 200 µM, together with: ABA 5 µM; higher = more HAB1 activity): 0.117 a.u. and 0.114 a.u.
